Literature values that unrelated publications cite.
Numbered parts are unrelated; values within a part may stem from several laboratories. ± marks the error that the study gave.

Study 1
Organism: Toxoplasma gondii
Effect on: parasite growth
Concentration: concentration not given
Notes: drug repurposing screen
Structure (SMILES) | activity class
CC(C)C[C@H](NC(=O)[C@@H](O)[C@H](N)Cc1ccccc1)C(=O)O | inactive
CN1CCN(C2=Nc3cc(Cl)ccc3Nc3ccccc32)CC1 | inactive
Cl.NC(N)=NC(=O)c1nc(Cl)c(N)nc1N.O | inactive

Mixed results
Compound | target or system | assay | test system | conditions | endpoint | value
CC(=O)N1CCC(c2ccc(C(=O)NC3=NCCN3)cc2C(F)(F)F)CC1 | SLC9A1 | biochemical activity |  |  | IC50 | > 10 µM
CN1CC(=O)N2[C@H](c3ccc4c(c3)OCO4)c3[nH]c4ccccc4c3C[C@@H]2C1=O |  |  | rat | oral, 1 mg/kg | Cmax | 82.1 ± 46.3 ng/mL
O=C(Nc1ccc(Oc2ccc(F)cc2)cc1)N1CCc2ncccc2[C@H]1c1ccc(F)cc1 | LHCGR | cellular activity |  |  | IC50 | > 16 µM
C[C@@H]1CCN(C(=O)CC#N)C[C@@H]1N(C)c1ncnc2[nH]ccc12 |  |  | human healthy adult |  | terminal t1/2 | ~2.5 h
CC1=C(C#N)C(c2ccc3[nH]nc(C)c3c2)C(C#N)=C(C)N1 | MET | biochemical |  |  | IC50 | < 0.001 µM
CC1=C(C#N)[C@@H](c2ccc3[nH]nc(C)c3c2)C(C#N)=C(c2ccc(Cl)cc2)N1 | MET | biochemical |  |  | IC50 | 11 µM
